# Published values collected from several papers.
# Numbered parts are unrelated; each lists some results of a single study. Substitutions count along the parent as printed.

# Block 1 — technique: protein-binding microarray; form: double-stranded DNA, one strand shown; sample: in vitro; tested at: 940 nM top; setting: 60-bp whole probe; together with: salmon DNA 0.4 mg/ml; reference: random background probes; reading: higher = stronger binding; shared flanks, not repeated: GCCTAGCAC … GTCTTGATTCGCTTGACGCTGCTG
# Target: Interferon regulatory factor 5, full length, phosphomimetic (IRF5, Homo sapiens, UniProt Q13568-2, residues 1-514, S451D/S453D/S456D/S462D)
Strand,fitted relative affinity [z-score]
GACGGTTTCGGGACTGGGGATGTGCTA,6.58
TTAGCTCTCCTTTTCCTTTAGTGCTAG,0.94
GACGGACCGGACACTGGGGACGTGCTA,-0.576
TTAGATCTCAGTCTCAATTAGTGCTAG,1.09
GGGCACATCTTAACATATGAGTGCTAG,-0.0274
GACGGAGTGCTTTTCCTGACGTGCTAG,-0.00425
TTACGTTCCCTTTTCCTTTAGTGCTAG,1.74
ATAGGTTTCCTACTGCTTTAGTGCTAG,0.483
GAAGGACTGGGGACTGGGGACGTGCTA,-0.629
TTAGGACTGGGTTGCGGTTAGTGCTAG,0.204
GACGGACGGGACACTGGGGACGTGCTA,-0.42
CCCTGTGTTACTTTCTACTTGTGCTAG,0.972
GATGGTTTCGGGTTTCGGGACGTGCTA,10.1
GACGGCATCGACACTGGGGACGTGCTA,-0.224
TCAGCTTTAGTCATTCACACTGTGCTA,-0.076
TTAGGACTGGACGATCGGTTAGTGCTA,-0.499

# Block 2 — technique: RNA Bind-n-Seq; form: RNA; sample: in vitro; tested at: not given; reference: input RNA pool; reading: higher = stronger binding
# Target: RING finger protein unkempt homolog, zinc fingers 1-6, GST-SBP tag (UNK, Homo sapiens, UniProt Q9C0B0, residues 30-357)
# Setting: RNA with constant flanks, human-mouse chimeric sites, ends assumed
# Target sequence (chain): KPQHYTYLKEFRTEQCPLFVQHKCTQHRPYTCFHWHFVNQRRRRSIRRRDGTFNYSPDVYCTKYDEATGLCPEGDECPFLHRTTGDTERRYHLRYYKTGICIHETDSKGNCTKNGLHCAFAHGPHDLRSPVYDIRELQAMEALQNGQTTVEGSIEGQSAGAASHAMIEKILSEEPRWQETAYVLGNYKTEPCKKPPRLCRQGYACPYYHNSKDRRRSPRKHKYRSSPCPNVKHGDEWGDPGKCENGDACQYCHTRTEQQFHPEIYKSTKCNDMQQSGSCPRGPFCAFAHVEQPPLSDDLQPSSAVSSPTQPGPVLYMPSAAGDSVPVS
Strand,bound/input enrichment [ratio]
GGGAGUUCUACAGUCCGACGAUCAAAGCCCUUGAAGAAAAAAAAAACUCGAACAGAUUUGUCAAGGGUAACCAGCUUGGAGUCUAGCAACUUGCCAAUGUGUUUACCAAUCUGGGGGCUUGUUUUUCUUUUCUUCUUUCAAAUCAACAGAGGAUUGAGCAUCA,0.387
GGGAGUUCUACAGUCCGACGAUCGUGUCCUGCUUUCAACUUAAAUCACUGCAUUUUUACUACUGUUCUGUGAGCAUCAGGACUGUAGCGCUGUGUCACCACAGAUGAGAACAGAAGCAGCCUUUCUGUGGAGGGUGGGAAUGACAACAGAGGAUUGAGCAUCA,0.203
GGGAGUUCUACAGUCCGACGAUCUCCUGGUCGUGUCCCAGUGCAGGACGAUGUGAACAAAAACUCAAAGCGGCCCUUUCUUUGUAGUUCUUGAUUCUCGAAAUGUGCUAUUAUUGUUUGUCUUUUUUUUUUUUUUUUUAAAGACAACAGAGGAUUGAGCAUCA,1.01
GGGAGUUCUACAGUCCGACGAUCUUCAAAGAAAAGGGCAGUUCAUAAAUAUCAUAAGUAACUCUGGGGGAGGGAAAUUCUGUUCUUUUGUUUAAUUUUCCCCCAAAUGAAGCCAAAGUGUGUGUUGAAGAACUGAGAAAAAAUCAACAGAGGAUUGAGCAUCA,0.117
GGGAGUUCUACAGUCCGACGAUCUUUCUACUGCAGCAGACCAUGCUACGAAUUAAGGAUCCUAAGAAGUCCCUGGAUUUUUAUACGAGGGUUCUUGGACUGACCCUCCUGCAGAAGCUUGACUUCCCUGCUAUGAAGUUCUCGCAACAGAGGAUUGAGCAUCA,0.168
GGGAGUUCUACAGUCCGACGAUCAAUUUCCUGUCAUACUUUUUAGACAUUCACAUCAGACUUACAGAGCAUUGGGCCUCUUUCUAGGUUUGUGUUAUUUCUCAGCUAUGGAUAUGAUCAAAUGAGAACACUGGCAGCCAGAUGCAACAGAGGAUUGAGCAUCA,0.557
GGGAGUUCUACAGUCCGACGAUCGUUGCCAGCUUCCGGUUCCGUUGGGCUCGGUUCUCUCCUGAGCUACGUGUCUCUACGCUCUCAAUCCCGGUUGGGUAAAACAUGGAUGAUCAGGUAAAGUUUGUGGAGCCCAGCCGGCAGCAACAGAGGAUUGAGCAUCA,0.121
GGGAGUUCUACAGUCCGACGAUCUAAGUCCUGUGCCAGCACUUCGCUCAUAAAGUUUUAAAUUCAAGAAAAAUAGUGUUUGUUUCCUGAUUAUUGUAUCCAAUACUUUGCGUACUAUGUGACUCACUCUUACUGAUAAUAAAACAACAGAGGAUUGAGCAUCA,3.12
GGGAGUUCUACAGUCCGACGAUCAGAAUCUUGGGACUGUUUUGCUUGAUUGGUCAUUGAUAGCUUAACAAACAUGGAGAUAAGAUUAGAAAUCUUGACAUCAACAGGUAUUAAGCAGAAAAAACCAUGGCCACGUGUCUCCUGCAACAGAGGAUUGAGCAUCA,0.112
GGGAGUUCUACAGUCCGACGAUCGUAGCUGGGACUACAGAAAUGCUGGUAGUGCUCCGGCCUUGCUGAUGACUUCUGAUGUCCCAGCAAAUAAUGCCACAGUUGACUGCUGAGAAGAUACUUCUGAGGACCCACGUCUAAGGUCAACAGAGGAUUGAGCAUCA,0.0966
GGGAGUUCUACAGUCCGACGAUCCACGUGUCUGCAGUACUUGAUGUGGACUACUCUCCCACUGGGAAGGAAUUUGUGUCUGCCAGCUUUGAUAAAUCUAUUCGAAUCUUUCCUGUGGACAAGAGCCGAAGCAGGGAAGUGUAUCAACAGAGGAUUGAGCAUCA,0.268

# Block 3 — target: CCNA2, cyclin fold, Cln2 fusion (human); technique: yeast growth competition, sequencing; sample: yeast; setting: strong parent motif; reference: not given; reading: higher = stronger binding
# Starting sequence: RBL1 docking peptide (human); GSAKRRLFGEDPP; partner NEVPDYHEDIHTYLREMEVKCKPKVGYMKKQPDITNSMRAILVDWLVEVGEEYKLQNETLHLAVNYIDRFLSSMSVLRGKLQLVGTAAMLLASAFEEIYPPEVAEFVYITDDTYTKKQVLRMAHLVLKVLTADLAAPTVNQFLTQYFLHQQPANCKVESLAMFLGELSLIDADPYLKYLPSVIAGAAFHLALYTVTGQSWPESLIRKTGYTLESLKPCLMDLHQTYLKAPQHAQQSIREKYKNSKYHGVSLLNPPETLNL
Substitution,normalised enrichment score
GSAKWRLFGEDPP [R5W],0.541
GSAKRMLFGEDPP [R6M],2.98
GSAKRRLFGEHPP [D11H],4.98
GSAKRRLFGEIPP [D11I],5.36
GSAKRHLFGEDPP [R6H],2.89
LSAKRRLFGEDPP [G1L],5.95
GSGKRRLFGEDPP [A3G],1.8
GSAKRRLFREDPP [G9R],6.7
GSAKRRLFGEDTP [P12T],6.22
GSAKRRLFTEDPP [G9T],5.94
GSAKRRLFGEEPP [D11E],5.99
GSAKRRLFGSDPP [E10S],5.85
GSAKRRLFCEDPP [G9C],6.04
QSAKRRLFGEDPP [G1Q],5.72
GSAKRRLFYEDPP [G9Y],5.91
GSAKRRLFGEDPA [P13A],5.67
GSAKRRLFGEMPP [D11M],5.24
GSAKRRLFGGDPP [E10G],5.25
TSAKRRLFGEDPP [G1T],5.98
GSAKRRLFGEDPR [P13R],6.03
GSAKRREFGEDPP [L7E],0.0658
MSAKRRLFGEDPP [G1M],4.71
GSAKRRFFGEDPP [L7F],0.796
GSAKRRVFGEDPP [L7V],1.53
GSAKSRLFGEDPP [R5S],1.13

# Block 4 — target: CREM, bZIP domain (human); technique: DHFR protein complementation; sample: yeast; reference: wild-type JUN-FOS pair; reading: higher = stronger binding
# Setting: single substitutions, most at no-binding floor
# Starting sequence: JUN, bZIP domain (human); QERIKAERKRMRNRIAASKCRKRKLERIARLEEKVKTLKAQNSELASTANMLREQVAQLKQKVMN; partner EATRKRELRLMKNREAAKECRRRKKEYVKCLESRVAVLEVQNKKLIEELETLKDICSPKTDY
Substitution,binding fitness [natural log]
L52Q,-1.54
V56S,-1.59
R30Q,-1.45
K39A,-1.31
R53W,-1.44
E33G,-1.5
T37S,-1.5
A29W,-1.47
E33K,-0.995
S43V,-1.38
R30P,-1.43
T48G,-1.51
S47V,-1.47
L45K,-1.43
A40L,-1.49
M51S,-1.44
T37M,-1.32
E54L,-1.5
A46R,-1.4
L52S,-1.52
I28K,-1.43
T48W,-1.48
L45M,-1.49
L52W,-1.46
S47C,-1.49

# Block 5 — technique: DHFR PCA, dose-response; sample: yeast; setting: Hill fit, mean, not affinity; together with: (+)-ABA, dose series; reading: lower = more sensitive
# Target: ABI1, truncated, D143A, DHFR fusion (Arabidopsis thaliana, UniProt P49597)
# Starting sequence: PYL1, truncated, DHFR fusion (Arabidopsis thaliana, UniProt Q8VZS8); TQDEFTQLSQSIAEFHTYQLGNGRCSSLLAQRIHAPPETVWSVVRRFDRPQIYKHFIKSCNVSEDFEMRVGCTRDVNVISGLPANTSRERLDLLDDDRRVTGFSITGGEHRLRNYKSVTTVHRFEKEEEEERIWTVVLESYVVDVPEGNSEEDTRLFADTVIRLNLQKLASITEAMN
Substitution,ABA EC50 [µM]
R113L,7.96
E109Y,42.5
T6N,6.01
T106E,9.02
A35T,34.6
E125T,1.98
G148Y,34
E125K,1.91
E152D,1.73
E38S,3.46
A35Q,90.8
Q19R,2.33
I52R,3.71
R111V,473
V121L,8.29
F56M,7.18
D96M,135
R99V,698
I133W,4.56
F124L,1.37
E151R,4.05
E152V,5.64

# Repeated from above (block 5):
Substitution,ABA EC50 [µM]
R113L,7.96
E109Y,42.5
T6N,6.01
T106E,9.02
A35T,34.6
E125T,1.98
G148Y,34
E125K,1.91
E152D,1.73
E38S,3.46
A35Q,90.8
Q19R,2.33
